Published values gathered from unrelated publications.
Every numbered part comes from another study and shows a few of its results, in no order. Substitutions count along the parent as printed.

Series 1
Target: Centromere-binding protein 1, full length, His-tagged (CBF1, Saccharomyces cerevisiae, UniProt P17106, residues 1-351)
Chain of UniProt P17106 (whole entry, looked up): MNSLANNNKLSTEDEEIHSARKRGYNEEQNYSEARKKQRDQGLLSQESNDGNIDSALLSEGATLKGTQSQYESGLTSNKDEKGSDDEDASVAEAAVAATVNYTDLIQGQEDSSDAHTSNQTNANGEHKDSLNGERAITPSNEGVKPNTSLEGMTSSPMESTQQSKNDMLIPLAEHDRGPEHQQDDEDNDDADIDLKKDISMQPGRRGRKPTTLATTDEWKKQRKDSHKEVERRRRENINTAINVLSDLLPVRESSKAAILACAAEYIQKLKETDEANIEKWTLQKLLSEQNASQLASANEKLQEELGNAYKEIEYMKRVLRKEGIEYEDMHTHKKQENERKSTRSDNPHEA
Method: competition protein-binding microarray
Form: double-stranded DNA, one strand shown
Medium: in vitro
Tested at: 2 µM
Setting: whole 60-bp probe, lowest competitor level
Together with: Pho4 competitor, 0.05 µM
Reading: higher = stronger binding
The fluorescence intensity of `TAGATTCCTAATTGTCTTGTGACGCTTAAAGCAGGGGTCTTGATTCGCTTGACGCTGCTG` is reported as 126 a.u.
With `GTCTTGTCTCATTTTCACGTGAACTTCCCCACTTCAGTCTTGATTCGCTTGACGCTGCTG` the fluorescence intensity was 709 a.u.
For `CTGAGCTTAATAAGCACCGTGCGATTACCTTCGTTTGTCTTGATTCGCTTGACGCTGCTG`, the fluorescence intensity was 68.2 a.u.
With `GTCTTGTCTCATTGCAACGTGGGTGTCCCCACTTCAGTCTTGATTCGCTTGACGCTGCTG` the fluorescence intensity was 91.7 a.u.
The fluorescence intensity of `CTTTCCCGATCTTGTCAAGTGGGTGTAGCACATTTGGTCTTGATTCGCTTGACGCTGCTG` is reported as 65.3 a.u.
`CTTCTGTAAATTTGCATCGTGGGTGGACGCGCCCCGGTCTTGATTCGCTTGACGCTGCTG` gave a fluorescence intensity of 84 a.u.
For `TCACTCTATAGCTGTCATGCGTGGATTTTTCCAGCTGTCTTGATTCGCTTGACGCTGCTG`, the fluorescence intensity was 93.4 a.u.
`ATGTCCATTCCCTGGCACGTGATGGCGAGTACTTCCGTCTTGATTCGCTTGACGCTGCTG` has a fluorescence intensity of 5410 a.u.
`GTAACAGGTTTCCATCACGTGCTTTTTAGGGTTTTGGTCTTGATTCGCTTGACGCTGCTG` has a fluorescence intensity of 3770 a.u.
The fluorescence intensity of `AGACATGTCGAATCGCACGCTGTTGCATTAAAAGTAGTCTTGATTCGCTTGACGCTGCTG` is reported as 75.4 a.u.
`AAATTACTAAGTTGGGAGGTGGGTGACGCCGTATGAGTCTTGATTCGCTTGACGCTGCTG` gave a fluorescence intensity of 62.9 a.u.
For `GGAAGGTGGCACCATCACCTGGGGAAATTCTGTCAAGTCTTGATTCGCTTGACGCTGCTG`, the fluorescence intensity was 61.8 a.u.
The fluorescence intensity of `ACACTAGAATTGACTCTCGTGGCCGTAATACGAACAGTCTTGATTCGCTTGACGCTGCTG` is reported as 77.6 a.u.
`CATACCCAACCTTGCGGCGTGGGTGAAGATATTTGTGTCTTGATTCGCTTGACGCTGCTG` has a fluorescence intensity of 65 a.u.
`GTCTTGTCTCATTGTCCGGTGGGTGTCCCCACTTCAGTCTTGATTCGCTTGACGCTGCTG` has a fluorescence intensity of 81.7 a.u.
For `CACTACGGAAGAAGCGTCGTGGCCGGATGGAAAGCAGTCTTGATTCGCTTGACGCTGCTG`, the fluorescence intensity was 71.4 a.u.
The fluorescence intensity of `CGACCCAAATAGTTAAACGTGTGGATTATGGGTGCAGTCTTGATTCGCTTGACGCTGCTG` is reported as 88.2 a.u.
The fluorescence intensity of `ATAGACGTACTGTTACACGTGATGGCGAGGATAGCGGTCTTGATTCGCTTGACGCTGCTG` is reported as 2340 a.u.
With `TTATGGATAGAGTCCCACGCTGATATAAACACCATAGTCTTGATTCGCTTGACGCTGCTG` the fluorescence intensity was 81.1 a.u.
With `GTCTTGTCTCATTGGACAGTGGGTGTCCCCACTTCAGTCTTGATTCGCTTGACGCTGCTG` the fluorescence intensity was 85.9 a.u.
With `TACGACCAGATGAATCACATGTGTGGATGTTAACAAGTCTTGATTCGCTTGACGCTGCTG` the fluorescence intensity was 553 a.u.
`CGGGGTTAAGTTTTTCACGTGGATTGCTTGCAGCAGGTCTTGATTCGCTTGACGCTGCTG` gave a fluorescence intensity of 463 a.u.
With `CGGGGTTAAGTTTGTGGCGTGGGTGGCTTGCAGCAGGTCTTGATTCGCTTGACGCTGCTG` the fluorescence intensity was 56.3 a.u.
`AAAGCGGTAATTTGGTCTGTGGGTGCAGATATCTATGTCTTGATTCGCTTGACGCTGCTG` gave a fluorescence intensity of 60 a.u.

Series 2
Target: ATF3, bZIP domain (human)
Method: DHFR protein complementation
Medium: yeast
Setting: single substitutions, most at no-binding floor
Reference: wild-type JUN-FOS pair
Reading: higher = stronger binding
Parent: JUN, bZIP domain (human); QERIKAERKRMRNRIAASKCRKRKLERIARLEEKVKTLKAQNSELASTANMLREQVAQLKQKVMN; partner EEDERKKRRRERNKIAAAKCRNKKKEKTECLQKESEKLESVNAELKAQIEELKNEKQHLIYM
`Q41K` gave a binding fitness of -0.288 natural log.
The binding fitness of `E33C` is reported as -0.355 natural log.
`L52R` has a binding fitness of -0.967 natural log.
With `A29D` the binding fitness was -0.172 natural log.
`N42W` gave a binding fitness of -0.474 natural log.
`S43M` has a binding fitness of -0.128 natural log.
With `E44P` the binding fitness was -1.15 natural log.
`A29T` gave a binding fitness of -0.144 natural log.
The binding fitness of `E33R` is reported as -0.21 natural log.
For `K39F`, the binding fitness was -0.861 natural log.
`L45Q` gave a binding fitness of -1.18 natural log.
For `E44D`, the binding fitness was -0.313 natural log.
With `T48Q` the binding fitness was -0.0488 natural log.
`R30W` gave a binding fitness of -0.0935 natural log.
`M51Q` has a binding fitness of -0.113 natural log.
`A46C` gave a binding fitness of -0.295 natural log.
`E33V` gave a binding fitness of -0.337 natural log.
For `L38K`, the binding fitness was -1.17 natural log.
The binding fitness of `V56P` is reported as -0.966 natural log.
For `L45V`, the binding fitness was -0.956 natural log.
With `S47G` the binding fitness was -0.14 natural log.
For `Q41T`, the binding fitness was -0.286 natural log.
For `Q58A`, the binding fitness was -0.204 natural log.

Series 3
Target: CCNB1, cyclin fold, Cln2 fusion (human)
Method: yeast growth competition, sequencing
Medium: yeast
Setting: strong parent motif
Reference: not given
Reading: higher = stronger binding
Parent: CUX1 docking peptide (human); SRIRRELFIEEIQ
For `E11A`, “normalised enrichment score” read 0.945.
For `R5K F8L`, “normalised enrichment score” read 0.408.
`I9A`: “normalised enrichment score” 0.85.
Under “normalised enrichment score”, `R4A` is recorded as 1.34.
For `L7A`, “normalised enrichment score” read -0.0152.
For `R5A L7A`, “normalised enrichment score” read 0.205.
For `F8L`, “normalised enrichment score” read -0.148.
Under “normalised enrichment score”, `Q13A` is recorded as 1.74.
Under “normalised enrichment score”, `F8A` is recorded as 0.713.
`I12A`: “normalised enrichment score” 0.749.

Series 4
Target: Histone acetyltransferase KAT6A, both winged helices, GST fusion (KAT6A, Homo sapiens, UniProt Q92794, residues 1-181)
Method: protein binding microarray
Form: double-stranded DNA, one strand shown
Medium: in vitro
Tested at: not given
Setting: 8-mer, flanks averaged, mean of 2 arrays, mostly near background
Reference: not given
Reading: higher = stronger binding
Target sequence (chain): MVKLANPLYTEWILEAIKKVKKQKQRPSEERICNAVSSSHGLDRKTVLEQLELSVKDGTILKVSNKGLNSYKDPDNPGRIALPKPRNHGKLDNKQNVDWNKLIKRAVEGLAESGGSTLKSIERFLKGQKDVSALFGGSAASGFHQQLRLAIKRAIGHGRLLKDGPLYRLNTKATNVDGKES
`AGGTTTCA` has an E-score of -0.12.
`GATTGTCA` gave an E-score of 0.0902.
For `AACGACCC`, the E-score was -0.0272.
With `TGAAAACA` the E-score was 0.0585.
`AGCGTAGA` has an E-score of 0.0476.
`ATACCTAC` has an E-score of -0.0616.
With `TCTGGCAA` the E-score was -0.246.
The E-score of `GACGCCCA` is reported as 0.0138.
`AGCATCCC` has an E-score of -0.00806.
With `CACACCCG` the E-score was 0.122.
With `CTCGATTA` the E-score was -0.121.
The E-score of `CAAACACG` is reported as 0.129.
`GGCCTAAC` gave an E-score of -0.0976.
The E-score of `GGTCAGAA` is reported as -0.0457.
With `CTCCCTTC` the E-score was -0.314.
`AGCAAAAT` has an E-score of -0.0963.
The E-score of `ACCTCACA` is reported as -0.101.
The E-score of `ACGCTAGG` is reported as -0.0558.
With `AGTGCCGG` the E-score was 0.181.
With `CCGACAGC` the E-score was 0.216.
With `GTTCAGAA` the E-score was -0.059.
For `CAAACGCA`, the E-score was 0.0783.
The E-score of `AAGACTAA` is reported as -0.0937.
With `GCCAATTA` the E-score was -0.128.
`GCTTATCA` gave an E-score of -0.161.

Series 5
Target: Interferon regulatory factor 5, full length, phosphomimetic (IRF5, Homo sapiens, UniProt Q13568-2, residues 1-514, S451D/S453D/S456D/S462D)
Method: protein-binding microarray
Form: double-stranded DNA, one strand shown
Medium: in vitro
Tested at: 940 nM top
Setting: 60-bp whole probe
Together with: salmon DNA 0.4 mg/ml
Reference: random background probes
Reading: higher = stronger binding
Constant ends, left off below: GCCTAGCAC … GTCTTGATTCGCTTGACGCTGCTG
For `GACGGTATCCTACTCCTGACGTGCTAG`, “fitted relative affinity” read 0.154 z-score.
`TCATCTCCCATTCTGAAACTGTGCTAG`: “fitted relative affinity” 0.989 z-score.
Under “fitted relative affinity”, `TTTTTTTTTTTTTTTTTACTGTGCTAG` is recorded as 1.35 z-score.
For `ATGAAGTTCTTTTTTTCAAGGTGCTAG`, “fitted relative affinity” read 0.732 z-score.
`GACCGTCTCCTTCTCCTGACGTGCTAG`: “fitted relative affinity” 0.895 z-score.
For `ATAGAACTGGGGTTTCGATTAGTGCTA`, “fitted relative affinity” read 5.09 z-score.
`GACGAACTGGGGACTGGAAACGTGCTA` — result for “fitted relative affinity”: 0.116 z-score.
Under “fitted relative affinity”, `GACGGACTGCTTCTCCTGAAGTGCTAG` is recorded as -0.35 z-score.
Under “fitted relative affinity”, `GGGCATTTGGAAAATGTAAACGTGCTA` is recorded as -0.124 z-score.
`TTAGATTTCGGGTTACGATTAGTGCTA`: “fitted relative affinity” 1.56 z-score.
`GACGAACTGGGGACTGGGGACGTGCTA` — result for “fitted relative affinity”: -0.0719 z-score.
`TTAGGTATCGGTCTCTGTTAGTGCTAG` — result for “fitted relative affinity”: 9.93 z-score.
`TTAGGTCTAGGTATCGGTTAGTGCTAG`: “fitted relative affinity” 3.78 z-score.
For `GACGGTATCGACACTGGGGATGTGCTA`, “fitted relative affinity” read 3.98 z-score.
`GACGGTATCGCTCTCGGGACGTGCTAG`: “fitted relative affinity” 4.32 z-score.
Under “fitted relative affinity”, `GACGGACTGGGGTATAGGGACGTGCTA` is recorded as -0.068 z-score.
Under “fitted relative affinity”, `TTAGATTTCAGACCGGATTAGTGCTAG` is recorded as 0.351 z-score.
`GACGGTTTTCTTCTCCTGACGTGCTAG` — result for “fitted relative affinity”: 1.48 z-score.
`GACGGACTGGGCCTGGGGACGTGCTAG` — result for “fitted relative affinity”: -0.813 z-score.
`TTAGAACTGGGGACTCGATTAGTGCTA` — result for “fitted relative affinity”: 0.0293 z-score.
`TTGTGTCTGGGCATTTTTTTTGTGCTA` — result for “fitted relative affinity”: -0.57 z-score.
`AACGGTTTCCTTTCCCTGACGTGCTAG`: “fitted relative affinity” 1.91 z-score.
Under “fitted relative affinity”, `TTAGATCTCAGTATCGAATAGTGCTAG` is recorded as 1.88 z-score.
Under “fitted relative affinity”, `ACTCGTGACCCTCTCAAAGGGTGCTAG` is recorded as -0.466 z-score.
Under “fitted relative affinity”, `CTCATTTTCGTTTTGTGTCTGTGCTAG` is recorded as 3.09 z-score.

Mixed results
`PhoQ, residues 284 288 289 292 302 303 SSTLSG` gave a fold induction of 0.464 (PhoP, residues 12 14 15 18 19 LHHVQ (Escherichia coli, UniProt P23836); Sort-seq, refers to: YFP reporter; E. coli; PhoQ-PhoP variant library, together with: 10 µM Mg2+; reference: high Mg2+ state, higher = stronger signaling).
